Measurements gathered from unrelated publications.
Lines come from different studies, so protocols differ. Several values in a cell are separate wells, animals, samples, runs or records. Numbers after ± are the reported error.
GBA2: Beta-glucosidase (GBA2, Homo sapiens, UniProt Q9HCG7)
cathepsin H: cathepsin H (Capra hircus, UniProt A0A452G5L2)
NPY4R: Neuropeptide Y receptor type 4 (NPY4R, Homo sapiens, UniProt P50391)
Slc6a4: Sodium-dependent serotonin transporter (Slc6a4, Rattus norvegicus, UniProt P31652)
CASP6: Caspase-6 (CASP6, Homo sapiens, UniProt P55212)
Aminodeoxyfutalosine nucleosidase: Aminodeoxyfutalosine nucleosidase (Helicobacter pylori, UniProt Q9ZMY2)
Dihydrofolate reductase: Dihydrofolate reductase (Enterococcus faecalis, UniProt Q834R2)
FUT3: FUT3 (Homo sapiens, UniProt P21217)
EPHA4: Ephrin type-A receptor 4 (EPHA4, Homo sapiens, UniProt P54764)
MAPK14: Mitogen-activated protein kinase 14 (MAPK14, Homo sapiens, UniProt Q16539)
Nos1: Nitric oxide synthase 1 (Nos1, Rattus norvegicus, UniProt P29476)
Beta-lactamase ADC-7: Beta-lactamase ADC-7 (Acinetobacter baumannii, UniProt Q6DRA1)
Metallo-beta-lactamase type 2: Metallo-beta-lactamase type 2 (Serratia marcescens, UniProt P52699)

SMILES | target | test | test system | conditions | Ki
OC[C@@H]1[C@@H](O)[C@H](O)[C@@H](O)CN1CCCCCOCC1CCCO1 (stereo partly shown) | GBA2 | enzyme activity, inhibitor | HEK293T overexpressing homogenate | together with: 4MU-β-D-glucopyranoside | 0.177 µM
COc1cccc(/C=C/C(=N\NC(N)=O)c2ccccc2)c1 | cathepsin H | competitive inhibitor, Lineweaver-Burk plot | goat liver enzyme | pH 7.0, together with: Leu-βNA substrate | 66 ± 0.3 µM
CC(C)C[C@H](NC(=O)N(CCCN)NC(=O)[C@H](Cc1ccc(O)cc1)NC(=O)CCCCCCC(=O)N[C@@H](Cc1ccc(O)cc1)C(=O)NN(CCCN)C(=O)N[C@@H](CC(C)C)C(=O)N[C@@H](CCCNC(=N)N)C(=O)N[C@@H](Cc1ccc(O)cc1)C(N)=O)C(=O)N[C@@H](CCCNC(=N)N)C(=O)N[C@@H](Cc1ccc(O)cc1)C(N)=O | NPY4R | – | – | – | 0.385 ± 0.127 µM
CCN(CC)c1ccc2c(-c3ccc(S(=O)(=O)NCCCCCC(=O)NCC(O)CN4CCN(CCSC(c5ccc(F)cc5)c5ccc(F)cc5)CC4)cc3S(=O)(=O)[O-])c3ccc(=[N+](CC)CC)cc-3oc2c1 (stereo not shown) | Slc6a4 | ligand displacement, radioligand | – | cell membranes | 3.32 µM
O=C(OCc1cccc(O)c1O)c1ccc(O)c(CO)c1 | Neutrophil cytosol factor 1, tandem SH3 domain (NCF1, Homo sapiens, UniProt P14598) | binding to p22phox peptide, inhibitor, fluorescence polarization | – | – | 0.054 µM
COc1ccccc1/C=C/C(=N/NC(N)=O)c1ccccc1 | cathepsin H | competitive inhibitor, Lineweaver-Burk plot | goat liver enzyme | pH 7.0, together with: Leu-βNA substrate | 66 ± 0.7 µM
CC(=O)NCC(=O)N[C@@H](CCC(=O)O)C(=O)N[C@@H](CO)C(=O)N1CCC[C@H]1C(=O)N[C@H](C=O)CC(=O)O | CASP6 | enzyme activity, inhibitor, fluorescence | – | pH 7 | > 100 µM
CCCSC[C@H]1CN(Cc2c[nH]c3c(N)ncnc23)C[C@@H]1O | Aminodeoxyfutalosine nucleosidase | enzyme activity, inhibitor | – | initial | 5.8e-05 ± 1.4e-05 µM
COc1cc(Cc2cnc(N)nc2N)cc(/C=C/C(=O)N2N=Cc3ccccc3C2c2cc(C)cc(C)c2)c1OC (stereo not shown) | Dihydrofolate reductase | enzyme activity, inhibitor | – | together with: dihydrofolate (Km 10.9 µM) | > 0.005 µM and 0.0071 µM
CC(=O)NCC1OC(OP(=O)(O)OP(=O)(O)OCC2OC(n3cnc4c(=O)[nH]c(N)nc43)C(O)C2O)C(F)C(O)C1O (stereo not shown) | FUT3 | enzyme activity, inhibitor | – | – | 9.9 µM
COc1cc(Cc2cnc(N)nc2N)cc(/C=C/C(=O)N2N=Cc3ccccc3C2Cc2ccc(OC(F)(F)F)cc2)c1OC (stereo not shown) | Dihydrofolate reductase | enzyme activity, inhibitor | – | together with: dihydrofolate (Km 10.9 µM) | 0.0188 µM
CCCCCCSC[C@H]1CN(Cc2c[nH]c3c(N)ncnc23)C[C@@H]1O | Aminodeoxyfutalosine nucleosidase | enzyme activity, inhibitor | – | slow-onset equilibrium | 5e-06 ± 2e-06 µM
CC(C)C[C@H](NC(=O)N(CCCNC(=N)N)NC(=O)[C@H](Cc1ccc(O)cc1)NC(=O)CCCCCCC(=O)N[C@@H](Cc1ccc(O)cc1)C(=O)NN(CCCNC(=N)N)C(=O)N[C@@H](CC(C)C)C(=O)N[C@@H](CCCNC(=N)N)C(=O)N[C@@H](Cc1ccc(O)cc1)C(N)=O)C(=O)N[C@@H](CCCNC(=N)N)C(=O)N[C@@H](Cc1ccc(O)cc1)C(N)=O | NPY4R | – | – | – | 0.113 ± 0.014 µM
CNC(=O)C1CCN(c2ccccc2NC(=O)c2ccc(-c3ccncc3)c(C)c2)CC1 | EPHA4 | – | – | – | > 0.25 µM
CC(C)OP(=O)(O)OCCCOP(=O)(O)OCCCOP(=O)(O)OCCCOP(=O)(O)OC(C)C | Ribonuclease pancreatic (RNASE1, Bos taurus, UniProt P61823) | enzyme activity, inhibitor, fluorescence | – | – | > 10000 µM
Nc1nc2c(ncn2[C@@H]2O[C@H](COP(=O)(O)OP(=O)(O)O[C@H]3O[C@@H](CNC(=O)c4ccc(-c5ccccc5)cc4)[C@@H](O)[C@@H](O)[C@@H]3F)[C@@H](O)[C@H]2O)c(=O)[nH]1 | FUT3 | enzyme activity, inhibitor | – | – | 28.8 µM
CNC(=O)C1CCN(c2cc(C)c(F)cc2NC(=O)c2ccc(-c3cc(O)ccc3C)c(C)c2)CC1 | Ephrin type-A receptor 1 (EPHA1, Homo sapiens, UniProt P21709) | cell-free assay, TR-FRET | – | – | 0.0021 µM
Nc1nc2c(ncn2[C@@H]2O[C@H](COP(=O)(O)OP(=O)(O)O[C@H]3O[C@@H](CNC(=O)C(c4ccccc4)C4CCCCC4)[C@@H](O)[C@@H](O)[C@@H]3F)[C@@H](O)[C@H]2O)c(=O)[nH]1 (stereo partly shown) | FUT3 | enzyme activity, inhibitor | – | – | 8.8 µM
C#CCOC(=O)[C@]1(C)C=C(C(=O)OC(C)(C)C)C(=O)CC1 | MAPK14 | ligand displacement, FP | – | – | 0.8 µM
Cc1cc(N)nc(CC2CNCC2NCCN)c1 (racemic) | Nos1 | enzyme activity, inhibitor | – | – | 0.388 µM
Cc1cc(N)nc(C[C@@H]2CNC[C@@H]2OCCCCOc2cc(F)cc(Cl)c2)c1 | Nos1 | enzyme activity, inhibitor | – | pH 7.4 | 0.117 µM
COc1cc(Cc2cnc(N)nc2N)cc(/C=C/C(=O)N2N=Cc3ccccc3C2Cc2ccc(C)cc2)c1OC (stereo not shown) | Dihydrofolate reductase | enzyme activity, inhibitor | – | together with: dihydrofolate (Km 10.9 µM) | 0.0062 µM

SMILES | target | test | test system | conditions | Ki
Cc1cc(N)nc(C[C@@H]2CNC[C@@H]2OCCCCCc2cccc(N)n2)c1 | Nos1 | enzyme activity, inhibitor | – | pH 7.4 | 0.03 µM
NS(=O)(=O)c1cccc(-c2cn(CB(O)O)nn2)c1 | Beta-lactamase ADC-7 | enzyme activity, inhibitor, competition kinetics | – | together with: nitrocefin | 1.6 µM
OC[C@@H]1[C@@H](O)[C@H](O)[C@@H](O)CN1CCCCCOCC1CCOC1 (stereo partly shown) | GBA2 | enzyme activity, inhibitor | HEK293T overexpressing homogenate | together with: 4MU-β-D-glucopyranoside | 0.0536 µM
CN(C)c1ccc2c(c1)C(=O)N(CCS)C2=O | Metallo-beta-lactamase type 2 | enzyme activity, inhibitor | – | Km 4.8 µM, together with: chromacef 25 µM | 0.075 ± 0.006 µM
COc1ccc(CC2c3ccccc3C=NN2C(=O)/C=C/c2cc(Cc3cnc(N)nc3N)cc(OC)c2OC)cc1 (stereo not shown) | Dihydrofolate reductase | enzyme activity, inhibitor | – | together with: dihydrofolate (Km 10.9 µM) | 0.0067 µM
CCN(CC)c1ccc2c(-c3ccc(S(=O)(=O)NCCCCCC(=O)NCc4ccccc4CC(O)CN4CCN(CCSC(c5ccc(F)cc5)c5ccc(F)cc5)CC4)cc3S(=O)(=O)[O-])c3ccc(=[N+](CC)CC)cc-3oc2c1 (stereo not shown) | Slc6a4 | binding | Sprague-Dawley rat | – | 2.92 ± 0.194 µM
Nc1ncnc2c1ncn2[C@H]1O[C@@H](COP(=O)(O)O)[C@H](O)[C@@H]1O | Adenylate kinase 2, mitochondrial (Homo sapiens, UniProt P54819) | enzyme activity, competitive inhibitor | – | together with: D-dAMP substrate, 0.2 mM ATP | 18 µM
O=C(O)c1cccc(CS(=O)(=O)NCc2cn(CB(O)O)nn2)c1 | Beta-lactamase ADC-7 | enzyme activity, inhibitor | – | together with: nitrocefin | 0.31 ± 0.02 µM
CC(=O)N[C@@H](CCC(N)=O)C(=O)N[C@@H](CC(=O)O)C(=O)N[C@H](C(=O)N[C@@H](CCCNC(=N)N)C(=O)N[C@H](C=O)CC(=O)O)[C@@H](C)O | CASP6 | enzyme activity, inhibitor, fluorescence | – | pH 7 | > 100 µM
CCC(CSCC(NC(=O)CCC(N)C(=O)O)C(=O)NCC(=O)O)C(=O)c1ccc(OCC(=O)NCCCCNC(=O)COc2ccc(C(=O)C(CC)CSCC(NC(=O)CCC(N)C(=O)O)C(=O)NCC(=O)O)c(Cl)c2Cl)c(Cl)c1Cl (stereo not shown) | Glutathione S-transferase Mu 2 (Homo sapiens, UniProt P28161) | enzyme activity, inhibitor, slow tight-binding model | – | together with: CDNB, GSH | ~0.00048 µM and 0.00048 µM
CCCCCCCCCCCCCCCC(=O)OCCCC | pheromone-binding protein 1 (Lymantria dispar, UniProt O16105) | binding, competitive fluorescence binding | – | pH 7.3, pheromone-binding protein 1, together with: 1-NPN probe | 3.81 ± 0.04 µM
COC(=O)[C@@]1(C)C=C(C(=O)OC(C)(C)C)C(=O)CC1 | MAPK14 | ligand displacement, FP | – | – | 1.7 µM
COC(=O)[C@@H](CS)N1C(=O)c2ccc(N(C)C)cc2C1=O | Metallo-beta-lactamase type 2 | enzyme activity, inhibitor | – | Km 4.8 µM, together with: chromacef 25 µM | 0.0052 ± 0.0008 µM
CNC(=O)C1CCN(c2ccccc2NC(=O)c2ccc(-c3cccc(O)c3)c(C)c2)CC1 | EPHA4 | enzyme activity, inhibitor | – | – | 0.045 µM
CN(C)c1ccc(-n2cc(COC(=O)[C@@]3(C)C=C(C(=O)OC(C)(C)C)C(=O)CC3)nn2)cc1 | MAPK14 | ligand displacement, FP | – | – | 12.8 µM
O=C(Cc1ccccc1)Nc1ccccc1NC(=O)Cc1ccccc1 | Protoporphyrinogen oxidase (PPOX, Homo sapiens, UniProt P50336) | enzyme activity, inhibitor, fluorescence | – | – | > 250 µM
Cc1cc(N)nc(CC2CNCC2OCCNCC(F)(F)C2CCCCN2)c1 (stereo not shown) | Nos1 | enzyme activity, inhibitor, hemoglobin capture | – | – | 2.7 µM
O=C(/C=C/c1ccccc1)c1ccccc1 | cathepsin H | competitive inhibitor, Lineweaver-Burk plot | goat liver enzyme | pH 7.0, together with: Leu-βNA substrate | 263 ± 2 µM
CNC(=O)C1CCN(c2ccccc2NC(=O)c2ccc(-c3cc(O)ccc3C)c(OC)c2)CC1 | EPHA4 | enzyme activity, inhibitor | – | – | 0.0017 µM
NC(=O)N/N=C(\C=C\c1ccc([N+](=O)[O-])cc1)c1ccccc1 | cathepsin H | competitive inhibitor, Lineweaver-Burk plot | goat liver enzyme | pH 7.0, together with: Leu-βNA substrate | 32 ± 0.2 µM
Oc1c(C(Nc2nc3ccccc3s2)c2cccc(OCc3ccccc3)c2)ccc2cccnc12 (stereo not shown) | Genome polyprotein, protease (Dengue virus type 2, UniProt P14340) | enzyme activity, inhibitor | – | – | 2.36 µM

A few entries again:
SMILES | target | test | test system | conditions | Ki
CNC(=O)C1CCN(c2ccccc2NC(=O)c2ccc(-c3ccncc3)c(C)c2)CC1 | EPHA4 | – | – | – | > 0.25 µM
CC(C)OP(=O)(O)OCCCOP(=O)(O)OCCCOP(=O)(O)OCCCOP(=O)(O)OC(C)C | Ribonuclease pancreatic (RNASE1, Bos taurus, UniProt P61823) | enzyme activity, inhibitor, fluorescence | – | – | > 10000 µM
Nc1nc2c(ncn2[C@@H]2O[C@H](COP(=O)(O)OP(=O)(O)O[C@H]3O[C@@H](CNC(=O)c4ccc(-c5ccccc5)cc4)[C@@H](O)[C@@H](O)[C@@H]3F)[C@@H](O)[C@H]2O)c(=O)[nH]1 | FUT3 | enzyme activity, inhibitor | – | – | 28.8 µM
CNC(=O)C1CCN(c2cc(C)c(F)cc2NC(=O)c2ccc(-c3cc(O)ccc3C)c(C)c2)CC1 | Ephrin type-A receptor 1 (EPHA1, Homo sapiens, UniProt P21709) | cell-free assay, TR-FRET | – | – | 0.0021 µM
Nc1nc2c(ncn2[C@@H]2O[C@H](COP(=O)(O)OP(=O)(O)O[C@H]3O[C@@H](CNC(=O)C(c4ccccc4)C4CCCCC4)[C@@H](O)[C@@H](O)[C@@H]3F)[C@@H](O)[C@H]2O)c(=O)[nH]1 (stereo partly shown) | FUT3 | enzyme activity, inhibitor | – | – | 8.8 µM
